{"data": "Experimental data gathered from unrelated publications", "note": "Numbered parts are unrelated; each lists some results of a single study."}
{"data": "Series 1", "target": "RNA binding protein fox-1 homolog 2, RRM domain, GST-SBP tag (RBFOX2, Homo sapiens, UniProt O43251-10, residues 100-194)", "technique": "RNA Bind-n-Seq", "molecule type": "RNA", "sample": "in vitro", "tested at": "365 nM", "setting": "natural RNA segment, single round, ends assumed", "relative to": "no-protein control", "direction": "higher = stronger binding", "Residues (chain)": "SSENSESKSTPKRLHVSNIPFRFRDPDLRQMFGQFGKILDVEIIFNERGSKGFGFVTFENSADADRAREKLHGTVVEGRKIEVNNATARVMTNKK"}
{"Oligonucleotide": "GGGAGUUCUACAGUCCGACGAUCUGGACUCAGAGGAGGAAUCGUGGAAAACAAGAGCAAAACUACCCCACACCCCUAUUUCAUGUCUGAAAUAACCCUGUUUCAUACCAGUUGCAAAGCUUGUGGGGAGCGGUUGGAAUUCUCGGGUGCCAA", "RBNS enrichment (R)": 0.506}
{"Oligonucleotide": "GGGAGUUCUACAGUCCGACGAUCGACUACAGGCACACACCAGUACCACUCAGUCUUGUGCAGUGCUGGGGAUGAGCCCAGGGUUUCAUGCAUGCCAGCAAACAUUCUACUAUCUGAGCAAUGUCCCCAGUGUCUGGAAUUCUCGGGUGCCAA", "RBNS enrichment (R)": 2.05}
{"Oligonucleotide": "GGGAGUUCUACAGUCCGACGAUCGUGCGGAGGGAGCCACCUCACCCUGCAGCCCAGUUUGCAGGUGUGGCCUUGUUUCUCCUUGCCCAGCAGUGCUGCCUUCAGCGGCCGUGACGGGGCCAGCUGGACACACGUGGAAUUCUCGGGUGCCAA", "RBNS enrichment (R)": 0.237}
{"Oligonucleotide": "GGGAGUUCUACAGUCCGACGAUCUUUAAGUGUUCAUGUUCUAGUGAACACAGCUUGUUCAGGAACAAACACUAAAACGAUUUGAGUAGAGGCUGCUGGUCACCUUUUGUGACCUGAGGAAUCCCAGGCCUGUGUGGAAUUCUCGGGUGCCAA", "RBNS enrichment (R)": 0.419}
{"Oligonucleotide": "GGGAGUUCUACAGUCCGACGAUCUGAUUCAUAUUACAAUAUUUGUGUGCAAAAUGUGUAUGUUUUUCAGUUUAAAGUCAUGUUUUUAAAAUCUUAUUAAAGUUUCAAAAAUCUGAAGAUUGUUUAUCUUAUCUUGGAAUUCUCGGGUGCCAA", "RBNS enrichment (R)": 0.591}
{"Oligonucleotide": "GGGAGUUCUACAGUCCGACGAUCUUUCAUCUUUUAUGAUAUAAAAUGAUGGCUAUCAAAUGAUUUUCCAUACAUUGUACUGAUCAAGUUAUACACCCAGGGGUAUAUACACUUUCUUCAUGUUUCUUCUUUGUUGGAAUUCUCGGGUGCCAA", "RBNS enrichment (R)": 0.514}
{"data": "Series 2", "target": "Interferon regulatory factor 5, full length, phosphomimetic (IRF5, Homo sapiens, UniProt Q13568-2, residues 1-514, K96S/S451D/S453D/S456D/S462D)", "technique": "protein-binding microarray", "molecule type": "double-stranded DNA, one strand shown", "sample": "in vitro", "tested at": "250 nM", "setting": "60-bp whole probe", "together with": "salmon DNA 0.4 mg/ml", "relative to": "random background probes", "direction": "higher = stronger binding", "constant ends, left off below": "GCCTAGCAC … GTCTTGATTCGCTTGACGCTGCTG"}
{"Oligonucleotide": "TCATTTTTTTTTTGGAAACTGTGCTAG", "log fluorescence [z-score]": 0.935}
{"Oligonucleotide": "ACCATTTTGGTTTTCTCTATGTGCTAG", "log fluorescence [z-score]": 1.62}
{"Oligonucleotide": "GACGGTATCGGGTATTGGGACGTGCTA", "log fluorescence [z-score]": 2.65}
{"Oligonucleotide": "TCATGTTTGATAATTTTACTGTGCTAG", "log fluorescence [z-score]": 0.651}
{"Oligonucleotide": "GAGATTTCCATTATTGCTTCGTGCTAG", "log fluorescence [z-score]": 1.02}
{"Oligonucleotide": "GACGGACTGGGGTTTCGGGCCGTGCTA", "log fluorescence [z-score]": 0.711}
{"Oligonucleotide": "TGAGATTTCAGTTTCGATTAGTGCTAG", "log fluorescence [z-score]": 10.1}
{"data": "Series 3", "target": "PABPC1L2, full length, GST fusion (mouse, UniProt A0ABA7IW68)", "technique": "RNAcompete", "molecule type": "RNA", "sample": "in vitro", "tested at": "20 nM", "setting": "7-mer, probes averaged, single round", "relative to": "mean of 7-mers", "direction": "higher = stronger binding", "Target sequence (chain)": "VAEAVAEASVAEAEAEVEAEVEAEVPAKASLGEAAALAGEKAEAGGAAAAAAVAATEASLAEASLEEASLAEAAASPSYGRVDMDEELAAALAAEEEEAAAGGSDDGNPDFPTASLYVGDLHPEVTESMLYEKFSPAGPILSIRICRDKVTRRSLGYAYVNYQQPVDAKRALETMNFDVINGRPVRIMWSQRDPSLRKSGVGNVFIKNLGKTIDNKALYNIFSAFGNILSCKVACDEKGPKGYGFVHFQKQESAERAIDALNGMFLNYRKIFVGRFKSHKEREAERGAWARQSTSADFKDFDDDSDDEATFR"}
{"Oligonucleotide": "CCUCCGG", "7-mer Z-score": -0.264}
{"Oligonucleotide": "AUCUGCU", "7-mer Z-score": -0.306}
{"Oligonucleotide": "AUAUGAA", "7-mer Z-score": 0.115}
{"Oligonucleotide": "ACUAAUC", "7-mer Z-score": -0.215}
{"Oligonucleotide": "AAACGCC", "7-mer Z-score": 0.62}
{"Oligonucleotide": "GCUGUAG", "7-mer Z-score": -0.101}
{"Oligonucleotide": "GGCGUCC", "7-mer Z-score": -0.135}
{"Oligonucleotide": "CGGUGAG", "7-mer Z-score": -0.182}
{"data": "Other studies, line by line"}
{"Substance": "PhoQ, residues 284 288 289 292 302 303 AMDMFI", "target": "PhoP, residues 12 14 15 18 19 NMSFL (Escherichia coli, UniProt P23836)", "test": "Sort-seq, refers to: YFP reporter", "system": "E. coli", "conditions": "PhoQ-PhoP variant library, together with: 10 µM Mg2+", "scale": "relative to: high Mg2+ state, higher = stronger signaling", "endpoint": "fold induction", "value": 1.5}
{"note": "Excerpt of the above (other studies, line by line):"}
{"Substance": "PhoQ, residues 284 288 289 292 302 303 AMDMFI", "target": "PhoP, residues 12 14 15 18 19 NMSFL (Escherichia coli, UniProt P23836)", "test": "Sort-seq, refers to: YFP reporter", "system": "E. coli", "conditions": "PhoQ-PhoP variant library, together with: 10 µM Mg2+", "scale": "relative to: high Mg2+ state, higher = stronger signaling", "endpoint": "fold induction", "value": 1.5}
